Published values gathered from unrelated publications.
Each line is one published result; not all experiments were run side by side. Several values in a cell are separate wells, animals, samples, runs or records. ± marks the error that the study gave.

Under “radiative decay rate constant”, `Cc1ccc(-c2ccc(-c3cc4sccc4o3)cn2)nc1` is recorded as 0.13 ns⁻¹ (TCSPC; water, HEPES 100 mM; pH 7.4, zinc complex).
`Cc1cc(-c2ccc(NC(=O)[C@H](CCCCNC(=O)CCOCCOCCC(=O)N[C@H](Cc3ccccc3)C(=O)N[C@H]3CSSC[C@@H](C(=O)N[C@H](C(=O)O)[C@@H](C)O)NC(=O)[C@H]([C@@H](C)O)NC(=O)[C@H](CCCCN)NC(=O)[C@@H](Cc4c[nH]c5ccccc45)NC(=O)[C@H](Cc4ccc(O)cc4)NC3=O)NC(=O)CN3CCN(CC(=O)O)CCN(CC(=O)O)CCN(CC(=O)O)CC3)c(C)c2)ccc1N=Nc1ccc2c(S(=O)(=O)O)cc(S(=O)(=O)O)c(N)c2c1O` [lutetium-177 labelled] gave a residence time of 1.2 ± 0.96 h (metastatic NET patients, liver metastases).
`CCCC[C@H](NC(=O)CNC(=O)CNC(=O)CN1CCN(CC(=O)O)CCN(CC(=O)O)CCN(CC(=O)O)CC1)C(=O)N[C@H]1CC(=O)NCCCC[C@@H](C(N)=O)NC(=O)[C@H](Cc2c[nH]c3ccccc23)NC(=O)[C@H](CCCNC(=N)N)NC(=O)[C@@H](Cc2ccccc2)NC(=O)[C@H](Cc2c[nH]cn2)NC1=O` [copper-64 labelled] has a tissue uptake of 10.3 ± 1.18 %ID/g (female C57 mouse, B16/F1 melanoma, liver; intravenous, 0.037 MBq, 2 h).
Under “absorption rate constant”, `N=C(N)NCCC[C@@H]1NC(=O)[C@H](Cc2c[nH]c3ccccc23)NC(=O)[C@@H](CC2CCCCC2)NC(=O)[C@@H]2CCCN2C(=O)[C@@H](NC(=O)CCc2ccccc2)CCCNC1=O` is recorded as 2.21 h⁻¹ (C57BL/6J mice, plasma; subcutaneous, 1 mg/kg, two-compartment model).
Under “storage stability time”, `COC(=O)C(c1ccccc1Cl)N1CCC(SCC(=O)c2cccc(OC)c2)C(=CC(=O)O)C1` (mixture of isomers) is recorded as at least 9 months (feline citrate plasma; -80 °C).
`CC(C)[C@H](NC(=O)[C@@H]1CCCN1C(=O)[C@H](CCCNC(=N)N)NC(=O)[C@H](CS)NC(=O)[C@H](Cc1c[nH]c2ccccc12)NC(=O)[C@H](CCCNC(=N)N)NC(=O)[C@@H](Cc1ccccc1)NC(=O)[C@H](Cc1c[nH]cn1)NC(=O)[C@H](CCC(=O)O)NC(=O)[C@H](CS)NC(=O)[C@H](CS)NC(=O)[C@@H]1CC(=O)N[C@@H](CCCNC(=N)N)C(=O)NCC(=O)N[C@@H](CC(=O)O)C(=O)N[C@H](Cc2ccc(O)cc2)C(=O)N1)C(N)=O` [technetium-99m labelled]: “tumour to tissue ratio” 7.81 (C57 mouse, female, B16/F1 melanoma; intravenous, 0.037 MBq, 4 h; baseline: tumour over liver).
For `NS(=O)(=O)c1ccc(N2N=C(C(F)(F)F)CC2c2ccc(F)cc2F)cc1` (centres unmarked), “CL1/F other elimination” read 0.193 L/h (population PK model; Beagle dog; bootstrap median).
`N=C(N)c1ccc(-c2ccc(-c3cccs3)s2)cc1` has a viability of 51.4 ± 3.8% (Salmonella typhimurium; liquid broth OD; TA1535; 100 µM, 15 h; baseline: growth).
The half-life of `Cn1c(=O)oc2ccc(-c3ccc(CC(C#N)NC(=O)C4CNCCCO4)c(F)c3)cc21` (centres unmarked) is reported as 18.3 h (human, plasma; 60 mg, single dose, fasted, mean).
`[64Cu+2].c1ccc(CNCc2ccc(CN3CCCN4CCNCCCN(CC4)CC3)cc2)nc1` gave a tissue uptake of 1.38 ± 0.05 %ID/g (CXCR4; NOD/SCID mouse, U87 and U87-stb-CXCR4 xenografts, pancreas; iv, 90 min, ex vivo, together with: AMD3465 25 mg/kg sc before tracer).
`Cc1ccc(OCC(=O)O)cc1` has a Cmax of 4840 ± 1680 ng/mL (Sprague-Dawley rat, male, plasma; oral gavage, 30 mg/kg of parent drug).
`CNc1cc(OC)c(Nc2nccc(-c3cn(C4CC4)c4ccccc34)n2)cc1NC(=O)CCSCC(NC(C)=O)C(=O)O` (centres unmarked) gave an excreted amount of 0.07% (radio-HPLC, co-eluting peaks pooled; human, urine; 0 to 96 h, sample holds 4.16% dose; baseline: dose).
`COc1ccnc(C[S+]([O-])c2nc3cc(-n4cccc4)ccc3[nH]2)c1C` (centres unmarked) has a Vz/F ratio of 0.38 (male Sprague Dawley rats, plasma; oral, 1 mg/kg ilaprazole racemate; baseline: compound over R-ilaprazole).
`Nc1ncnc2c1nc(-n1nnc3c1CCC1C(CO)C1CC3)n2C1CC(O)C(CO)O1` (mixture of isomers) — result for “fluorescence lifetime τ3”: 5.6 ns (frequency-domain fluorometry; methanol).
`COc1cccc(C=NCCCN(C)CCN(C)CCCN=Cc2cccc(OC)c2[O-])c1[O-].[67Ga+3]`: “tissue uptake ratio” 1.85 ± 0.17 (rat; intravenous, 1 min; baseline: heart over lung).
For `CCCCOc1nc(N)c2[nH]c(=O)n(CCCN(CCCN3CCOCC3)Cc3cccc(CC(=O)OC)c3)c2n1`, the lung concentration was over 1000 nmol/kg (rat, Brown Norway, lung; intratracheal, 0.3 mg/kg, maintained over 5 h).
`CC(C)c1cnc(-c2cc(Cl)ccc2F)cc1Nc1ccncc1C(=O)NC(CO)CO` — result for “patients with related SAE”: 0% (measured: hypotension; human patients; oral, dose not given, grade 5).
`CC(C)(C)c1cc(-c2ccc3cccnc3n2)nc(-c2ccc3cccnc3n2)c1.COc1ccncc1.[Cl-].[Cl-].[Ru+2].c1ccc2cc3nc4c5cccnc5c5ncccc5c4nc3cc2c1`: “singlet oxygen quantum yield” 0.69 (1O2 phosphorescence; acetonitrile; excitation 630 nm; baseline: Ru(bpy)3(PF6)2).
Under “absorbed radiation dose”, `[11CH3]c1ccc2nc(C3CCC3)n(-c3ccc4[nH]ncc4c3)c2n1` is recorded as 3.1 µSv/MBq (human male, pancreas).
`CC(C)C[C@@H](NC(=O)[C@H](NC(=O)[C@H]1CCCN1)[C@H](C)O)C(=O)N[C@H](Cc1c[nH]cn1)C(=O)N[C@@H](C(=O)N[C@H](Cc1c[nH]cn1)C(=O)N[C@H](CC(N)=O)C(=O)N[C@H](CCCNC(=N)N)C(=O)N[C@H](CCCNC(=N)N)C(=O)N[C@H](CCCNC(=N)N)C(=O)N[C@H](CCCNC(=N)N)C(=O)N[C@H](CCCNC(=N)N)C(N)=O)[C@H](C)O` — result for “AUC share of terminal phase”: 76% (Beagle dog, plasma; oral, 50 mg/kg).
`NC(=O)[C@H](Cc1ccccc1)N[11C](=O)OCc1ccccc1` has an intact tracer of 15% and 15.2% (male Wistar rats, plasma; intravenous, 15 min).
`[64Cu+2].c1cnc(CNCc2ccc(CN3CCCN4CCNCCCN(CC4)CC3)cc2)nc1` gave a tissue uptake of 3.26 ± 0.64 %ID/g (CXCR4; NOD/SCID mouse, U87 and U87-stb-CXCR4 xenografts, stomach; iv, 120 min, ex vivo).
`CN[C@@H]1[C@H](O)[C@H](NC)[C@H]2O[C@]3(O)[C@H](O[C@@H]2[C@H]1O)O[C@H](C)C[C@@]3(O)CNCCc1ccc(F)cc1` has a C0 of 38000 to 74000 ng/mL (male BALB/c mouse, plasma; intravenous, 10 mg/kg).
`O=Cc1c(O)ccc2ccccc12` — result for “log2 fold change”: -2.96 (HUVEC; RNA sequencing, measured: CASP12; 75 µM, 24 h; baseline: DMSO).
The growth percent of `COc1cc(CNC(=O)C[C@H](C)CCC=C(C)C)ccc1OCc1cn(-c2ccc(F)cc2)nn1` is reported as 77.1% (MCF7 breast cancer cells; SRB; 10 µM, 48 h).
`CN(C(=O)Cn1c(=O)oc2ccc(-c3ccc(OCC[18F])cc3)cc21)c1ccccc1` — result for “intact parent fraction”: 8.6 ± 1.9% (ischemic Sprague-Dawley rats, plasma; intravenous, 10 MBq radiolabelled, 30 min).
The helical content of `CC[C@@H](C)[C@@H](NC(=O)[C@@H](C)NC(=O)[C@@H](CCCCN)NC(=O)[C@@H](CC(C)C)NC(=O)[C@@H](C)NC(=O)[C@H](NC(=O)[C@@H](CCCCN)NC(=O)[C@@H](CC(C)C)NC(=O)[C@H](NC(=O)[C@@H](CCCCN)NC(=O)[C@@H](CCCCN)NC(=O)[C@@H](CCCCN)NC(=O)[C@@H](C)NC(=O)[C@@H](CCCCN)NC(=O)[C@@H](CO)NC(=O)[C@@H](Cc1ccccc1)NC(=O)[C@H](NC(=O)[C@@H](CCCCN)NC(=O)[C@@H](CC(C)C)NC(=O)[C@@H](Cc1ccccc1)NC(=O)[C@@H](CO)NC(=O)[C@@H](CCCCN)NC(=O)[C@@H](Cc1c[nH]c2ccccc12)NC(=O)[C@@H](CCCCN)NC(C)=O)[C@H](C)O)C(C)C)[C@H](C)O)C(=O)N[C@H](CO)C(=O)N[C@H](CCCCN)C(N)=O` is reported as 78% (circular dichroism; 50% trifluoroethanol buffer; 5 °C; baseline: reference peptide in TFE).
`O=C(CCc1ccc(CNC(C(=O)OC2CCCC2)C2CCCCC2)cn1)NO` (centres unmarked) has an AUC(tau) of 160 ng·h/mL (human, plasma; oral, 40 mg once daily, day 1, geometric mean).
`CCN(CC)c1ccc2c(-c3ccccc3C(=O)OCCOCCOCC[18F])c3ccc(=[N+](CC)CC)cc-3oc2c1` has a liver radioactivity of 30 to 35% (PET imaging; rat, liver; dose not given, 55 min post injection; baseline: value at 5 min).
For `Cc1nn(-c2ccc(S(=O)(=O)N[C@@H](CO)CC(C)C)cc2)c2nn3nnnc3nc12`, the necrotic cells was 64.5 ± 6.36% (PC-3; PI/Hoechst staining; 2 µM, 24 h).
The viability of `N#Cc1ccc(-c2ccc(-c3cccs3)o2)nc1` is reported as 130 ± 9.3% (Salmonella typhimurium; liquid broth OD; TA1535; 25 µM, 15 h; baseline: growth).
`CC(C)C1=CC2=CCC3C(C)(C(=O)OCCC[N+](C)(C)C)CCCC3(C)C2CC1` (centres unmarked) gave an HC50 of 160 µg/mL (mouse red blood cells; 1 h, 37 °C).
With `COc1cc(CNC(=O)C[C@H](C)CCC=C(C)C)ccc1OCc1cn(-c2ccc(Cl)c(Cl)c2)nn1` the growth percent was 49.6% (MCF7 breast cancer cells; SRB; 10 µM, 48 h).
`CC12CC3CC(C)(C1)CC(NC(=O)Nc1ccc(C(=O)N4CCCC(C(N)=O)C4)cc1)(C3)C2` (centres unmarked) gave a CL of 33600 mL/h (Sprague Dawley rats, both sexes, plasma; oral, 10 mg/kg).
`Cc1cc(O)cc(O)c1C(=O)c1c2c3c(c(O)cc(C)c3oc1=O)C(=O)c1c(O)cc(O)cc1-2` — result for “absorption rate constant”: 0.9 h⁻¹ (KM mice, male, plasma; intraperitoneal, 30 mg/kg).
For `C[N+]1(CC(=O)OC2CCCCCCCCCCC2)CCCCC1`, the clearance was 0.07 L/h (mouse, plasma; intraperitoneal, 5 mg/kg, single dose).
With `COc1ccc(-c2csc(N/N=C(\C)c3cc(O)cc(O)c3)n2)cc1` the concentration change was 9.07% (LC-MS/MS; rat plasma; 3.75 ng/mL, 5 h, 25 °C, bench-top storage).
The Vss of `CC12CC(c3ccc(S(C)(=O)=O)cc3)C3=C4CCC(=O)C=C4CCC3C1CCC2(O)C(F)(F)C(F)(F)F` (centres unmarked) is reported as 359 L (human, plasma; intravenous, 15.7 µg, [14C] microdose, geometric mean).

Excerpt of the above:
`Nc1ncnc2c1nc(-n1nnc3c1CCC1C(CO)C1CC3)n2C1CC(O)C(CO)O1` (mixture of isomers) — result for “fluorescence lifetime τ3”: 5.6 ns (frequency-domain fluorometry; methanol).
`COc1cccc(C=NCCCN(C)CCN(C)CCCN=Cc2cccc(OC)c2[O-])c1[O-].[67Ga+3]`: “tissue uptake ratio” 1.85 ± 0.17 (rat; intravenous, 1 min; baseline: heart over lung).
For `CCCCOc1nc(N)c2[nH]c(=O)n(CCCN(CCCN3CCOCC3)Cc3cccc(CC(=O)OC)c3)c2n1`, the lung concentration was over 1000 nmol/kg (rat, Brown Norway, lung; intratracheal, 0.3 mg/kg, maintained over 5 h).
`CC(C)c1cnc(-c2cc(Cl)ccc2F)cc1Nc1ccncc1C(=O)NC(CO)CO` — result for “patients with related SAE”: 0% (measured: hypotension; human patients; oral, dose not given, grade 5).
`CC(C)(C)c1cc(-c2ccc3cccnc3n2)nc(-c2ccc3cccnc3n2)c1.COc1ccncc1.[Cl-].[Cl-].[Ru+2].c1ccc2cc3nc4c5cccnc5c5ncccc5c4nc3cc2c1`: “singlet oxygen quantum yield” 0.69 (1O2 phosphorescence; acetonitrile; excitation 630 nm; baseline: Ru(bpy)3(PF6)2).
